Earlier results that unrelated publications cite.
Numbered parts are unrelated; values within a part may stem from several laboratories. “And” joins repeats or separate records; there may be more than shown.

Block 1
Organism: Toxoplasma gondii
Observed: parasite growth
Concentration: concentration not given
Setting: published screen
| SMILES | activity class |
| --- | --- |
| CC1CCN(CCCC(=O)c2ccc(F)cc2)CC1.Cl | inactive |
| OCc1cc(C(O)CNCCCCCCOCCCCc2ccccc2)ccc1O (stereo not drawn) | inactive |
| COc1nc(C)nc(Cl)c1NC1=NCCN1.Cl | inactive |
| CC1=C(CC(=O)O)c2cc(F)ccc2/C1=C\c1ccc([S+](C)[O-])cc1 (stereo not drawn) | inactive |
| CNC(=C[N+](=O)[O-])NCCSCc1ccc(CN(C)C)o1 | inactive |

Single results of other studies
| Compound | target or system | assay | system | setting | how to read | endpoint | value |
| --- | --- | --- | --- | --- | --- | --- | --- |
| O[C@]1(C(F)(F)F)CCCC[C@H]1Nc1ccc(F)cc1 | SLC6A3 | binding, radioligand binding Eurofins-Panlabs |  |  |  | Ki | 900 nM |
| CN(C)c1cccc2c1C#Cc1cccc(N(C)C)c1C#C2 |  | UV spectroscopy | methanol | room temperature, with: benzyl azide |  | second-order rate constant | 0.0383 M⁻¹ s⁻¹ and 0.039 M⁻¹ s⁻¹ |
| Cc1cc(C)c(-n2ccn3nc(-c4cccnc4)cc23)cc1NC(=O)c1cc(C#N)cc(S(F)(F)(F)(F)F)c1 | TEK | biochemical activity |  |  |  | IC50 | 0.45 nM |
| C[N+](C)(C)c1ccc2c(c1)C#Cc1ccc([N+](C)(C)C)cc1C#C2.O=C([O-])C(F)(F)F.O=C([O-])C(F)(F)F |  | SPAAC cycloaddition, substrate, UV spectroscopy | methanol | room temperature, mean of 2 runs, with: benzyl azide 100 mM |  | second-order rate constant | 0.174 M⁻¹ s⁻¹ |
| CO[C@@H](C)c1c(Nc2ccc([C@H](N(C)C(=O)C3CCS(=O)(=O)CC3)C(F)(F)F)cc2)cnc2cc(Cl)nn12 | MALT1 (human) | cellular activity |  |  |  | IC50 | 3.4 nM |
| CCCCCCCCNC(C)C(O)c1ccc(SC(C)C)cc1 (stereo not drawn) | MCF7 | microarray, Connectivity Map, refers to: BHLHE40 mRNA |  | concentration not given, 6 h | baseline: DMSO | fold change | 2.92 |
| CC1=C(C#N)C(c2ccc3[nH]nc(C)c3c2)C(C#N)=C(C)N1 | MET | cell-based |  |  |  | IC50 | 2.9 nM |

A few entries again (block 1):
| SMILES | activity class |
| --- | --- |
| CC1=C(CC(=O)O)c2cc(F)ccc2/C1=C\c1ccc([S+](C)[O-])cc1 (stereo not drawn) | inactive |
